Assay results collected from several papers.
Parts stem from different laboratories: compare values within a part only.

Set 1 — technique: RNAcompete; molecule type: RNA; medium: in vitro; concentration: 20 nM; setting: 7-mer, probes averaged, single round; relative to: mean of 7-mers; reading: higher = stronger binding; endpoint: 7-mer Z-score
Target: PABPC1L2, full length, GST fusion (mouse, UniProt A0ABA7IW68)
Target sequence (chain): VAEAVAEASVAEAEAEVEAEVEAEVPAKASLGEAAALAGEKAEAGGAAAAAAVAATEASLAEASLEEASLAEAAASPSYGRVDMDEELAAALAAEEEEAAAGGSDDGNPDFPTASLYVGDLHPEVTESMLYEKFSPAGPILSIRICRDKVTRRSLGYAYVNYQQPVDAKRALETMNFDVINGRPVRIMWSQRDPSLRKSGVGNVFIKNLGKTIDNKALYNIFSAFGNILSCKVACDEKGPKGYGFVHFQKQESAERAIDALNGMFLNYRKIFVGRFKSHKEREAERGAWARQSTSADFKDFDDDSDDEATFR
Oligonucleotide = GAGGCCA; result = 0.109
Oligonucleotide = CAAUGCG; result = -0.119
Oligonucleotide = CCAAACU; result = -0.106
Oligonucleotide = UUGUGAA; result = 0.0352
Oligonucleotide = UCUCACA; result = -0.36
Oligonucleotide = UUAUGCU; result = -0.271
Oligonucleotide = CGCCGGC; result = -0.51
Oligonucleotide = GAACUCC; result = -0.242
Oligonucleotide = ACGACUA; result = 0.1
Oligonucleotide = CGAAGAG; result = -0.11
Oligonucleotide = AGCUUCG; result = -0.222
Oligonucleotide = CACCCCG; result = -0.441
Oligonucleotide = UUUUCCA; result = -0.277
Oligonucleotide = CGUACUC; result = -0.396
Oligonucleotide = UAGCGAG; result = 0.1
Oligonucleotide = AGUUUGC; result = -0.387
Oligonucleotide = AGUAAUG; result = -0.00652
Oligonucleotide = AGGGAGA; result = 0.211
Oligonucleotide = AUCUCCU; result = -0.327
Oligonucleotide = UGUUGAU; result = -0.188
Oligonucleotide = GAAAAUG; result = 2.9

Set 2 — technique: protein binding microarray; molecule type: double-stranded DNA, one strand shown; medium: in vitro; concentration: not given; relative to: not given; reading: higher = stronger binding; endpoint: E-score
Target: Histone acetyltransferase KAT6A, winged helix 2, GST fusion (KAT6A, Homo sapiens, UniProt Q92794, residues 85-181)
Setting: 8-mer, flanks averaged, mean of 2 arrays, mostly near background
Construct (chain): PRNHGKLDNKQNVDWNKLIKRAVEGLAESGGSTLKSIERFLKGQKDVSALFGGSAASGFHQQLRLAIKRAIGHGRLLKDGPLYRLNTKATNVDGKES
Oligonucleotide = ACCGTGTG; result = 0.0118
Oligonucleotide = CACATGGA; result = -0.0307
Oligonucleotide = CTTTTACA; result = 0.0151
Oligonucleotide = CTACCTGC; result = -0.012
Oligonucleotide = GATATCAA; result = 0.158
Oligonucleotide = ACAGAACA; result = -0.0185
Oligonucleotide = TGGCCCCA; result = -0.141
Oligonucleotide = CGACTCGA; result = -0.013
Oligonucleotide = AGCAGACG; result = 0.00988
Oligonucleotide = CTTTCTCA; result = -0.0314
Oligonucleotide = AACTCAAT; result = -0.0874
Oligonucleotide = ACCCTTCT; result = -0.109
Oligonucleotide = ATATCAAT; result = 0.141
Oligonucleotide = AAACACGG; result = 0.0386
Oligonucleotide = AGAACACA; result = 0.0799
Oligonucleotide = CCCAACTC; result = 0.142
Oligonucleotide = CGGGACAC; result = 0.0338
Oligonucleotide = ATGGGGTC; result = -0.00475
Oligonucleotide = GGCTTGAC; result = -0.00426
Oligonucleotide = CTCAGTGA; result = -0.022
Oligonucleotide = CCTCCAGG; result = 0.00248
Oligonucleotide = AATGAACA; result = -0.0716
Oligonucleotide = TAACCTTA; result = -0.136
Oligonucleotide = AGGAGAGG; result = -0.0132
Oligonucleotide = CTGCCAAG; result = -0.113

Set 3 — technique: universal PBM; molecule type: double-stranded DNA, one strand shown; medium: in vitro; concentration: 600 nM; reading: higher = stronger binding; endpoint: E-score
Target: Sal-like protein 4, full length isoform A (SALL4, Homo sapiens, UniProt Q9UJQ4, residues 1-1053)
Sequence of UniProt Q9UJQ4 (whole entry, looked up): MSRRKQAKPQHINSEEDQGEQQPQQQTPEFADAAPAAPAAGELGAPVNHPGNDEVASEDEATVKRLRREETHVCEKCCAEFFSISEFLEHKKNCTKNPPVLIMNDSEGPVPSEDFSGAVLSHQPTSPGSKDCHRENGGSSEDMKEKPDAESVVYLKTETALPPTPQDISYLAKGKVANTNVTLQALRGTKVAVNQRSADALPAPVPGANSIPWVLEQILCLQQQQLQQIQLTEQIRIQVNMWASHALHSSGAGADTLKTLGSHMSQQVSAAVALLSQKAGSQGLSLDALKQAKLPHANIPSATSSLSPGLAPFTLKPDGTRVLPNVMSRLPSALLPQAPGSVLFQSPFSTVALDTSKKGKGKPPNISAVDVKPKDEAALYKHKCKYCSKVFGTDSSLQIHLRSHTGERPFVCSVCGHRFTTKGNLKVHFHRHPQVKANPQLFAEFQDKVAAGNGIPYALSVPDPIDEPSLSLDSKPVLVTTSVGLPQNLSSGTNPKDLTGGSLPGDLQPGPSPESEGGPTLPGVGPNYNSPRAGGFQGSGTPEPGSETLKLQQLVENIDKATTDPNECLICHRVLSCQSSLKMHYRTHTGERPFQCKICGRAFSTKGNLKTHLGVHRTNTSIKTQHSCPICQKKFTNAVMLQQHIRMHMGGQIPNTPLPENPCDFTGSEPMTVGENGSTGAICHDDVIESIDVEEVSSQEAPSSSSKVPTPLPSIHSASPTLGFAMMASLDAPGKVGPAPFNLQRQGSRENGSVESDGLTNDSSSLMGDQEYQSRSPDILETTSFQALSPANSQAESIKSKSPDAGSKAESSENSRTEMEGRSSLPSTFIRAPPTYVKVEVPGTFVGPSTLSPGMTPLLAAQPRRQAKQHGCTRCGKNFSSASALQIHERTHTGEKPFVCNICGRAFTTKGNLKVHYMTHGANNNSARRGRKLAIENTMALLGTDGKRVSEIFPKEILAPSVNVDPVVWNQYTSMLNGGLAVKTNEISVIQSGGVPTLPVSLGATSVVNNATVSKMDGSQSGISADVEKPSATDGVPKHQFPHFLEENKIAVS
Setting: 8-mer, flanks averaged, mean of replicates
Oligonucleotide = ATTAATTG; result = 0.381
Oligonucleotide = GCCCTACC; result = -0.119
Oligonucleotide = GCAAGCCA; result = -0.222
Oligonucleotide = TAGAACAA; result = 0.177
Oligonucleotide = GAATCAGC; result = -0.182
Oligonucleotide = ATGTTACA; result = 0.253
Oligonucleotide = CGGGCACG; result = -0.275
Oligonucleotide = AAGCGCCG; result = -0.306
Oligonucleotide = ATATTCTG; result = 0.219
Oligonucleotide = GTACATGA; result = 0.182
Oligonucleotide = CTCATGGA; result = 0.0202
Oligonucleotide = CCGCGTCG; result = -0.324
Oligonucleotide = TACGGGCA; result = -0.132
Oligonucleotide = AGTAGTGG; result = -0.0428
Oligonucleotide = AACACGAA; result = 0.238
Oligonucleotide = CTCCGTCA; result = -0.0663
Oligonucleotide = GTTTTCGA; result = -0.0637
Oligonucleotide = CGCAACCG; result = -0.214
Oligonucleotide = TCCTACAA; result = 0.141
Oligonucleotide = CCTACCAG; result = -0.24
Oligonucleotide = GAGAGCGC; result = -0.33

Set 4 — technique: RNA Bind-n-Seq; molecule type: RNA; medium: in vitro; concentration: not given; relative to: input RNA pool; reading: higher = stronger binding; endpoint: bound/input enrichment
Target: RING finger protein unkempt homolog, zinc fingers 1-6, GST-SBP tag (UNK, Homo sapiens, UniProt Q9C0B0, residues 30-357)
Sequence of UniProt Q9C0B0 (30-357, looked up): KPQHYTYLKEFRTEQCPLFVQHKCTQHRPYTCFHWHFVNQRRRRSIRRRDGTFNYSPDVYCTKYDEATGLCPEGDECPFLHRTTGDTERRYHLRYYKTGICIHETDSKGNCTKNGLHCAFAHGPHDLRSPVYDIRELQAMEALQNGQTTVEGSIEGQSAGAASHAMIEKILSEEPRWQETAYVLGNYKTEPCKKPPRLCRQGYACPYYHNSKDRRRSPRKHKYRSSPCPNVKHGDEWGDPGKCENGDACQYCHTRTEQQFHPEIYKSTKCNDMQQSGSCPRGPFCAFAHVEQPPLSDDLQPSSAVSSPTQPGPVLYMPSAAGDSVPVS
Setting: RNA with constant flanks, human-mouse chimeric sites, ends assumed
Shared flanks, not repeated: GGGAGUUCUACAGUCCGACGAUC … CAACAGAGGAUUGAGCAUCA
Oligonucleotide = CUGGGUAUCAUCUCUCGUGCUGUUAGACACCUGUUCAAGAGUAUUGAUGAGAAAAAGACCUCAGCGAUUAAAAACGGGCUGCCCCCUCCUGAAUUCAAAGUGAAUGCCCAGUUCCUAGAG; result = 0.175 ratio
Oligonucleotide = UUAAUCCCCUUUACUGCUCCCCCACUUCUCAUGGUAAUAACAAAGUCUUAUAUUCCCGUCCUAGCUUUCACUCAGAUGGCUUAUGGAGCCGGUUUCCUAGCUUUCUUGGGAGGGAUCAGA; result = 0.413 ratio
Oligonucleotide = UCAACUGACAACAUCAAAUACCAGCCUAAGGGGGGUCAGGUACAAAUUGUUACCAAGAAAAUAGACCUAAGCCAUGUGACAUCCAAAUGUGGCUCUCUGAAGAACAUCCGCCACAGGCCA; result = 0.395 ratio
Oligonucleotide = AUCAAAUAUUUUGGGGACAUCAUUAGUGUGGGACAGAGACUGUUGCAAGGGGCCCGGAUCUUAGGGAUUCCAGUUAUCAUAACGGAACAAUACCCCAAAGGACUUGGCAGCACCGUUCAA; result = 0.257 ratio
Oligonucleotide = ACCUCCCCCUCCCGCCUGCUUUUUGAACCGCUUUUUGAAAGUGUGUUGGCGUUUCUUUUCCUUCCCCAUACAAAGUGAUUACAGUUUCCCCCGCAAGGGUCUAUCGAAGGGCUUGACGGA; result = 0.609 ratio
Oligonucleotide = UCUUUAAAUGCACUACAACCUUUUCUGACAGUGCUUUCCCUCCCAUAGGUCCAGGUUCAAGCUCAAAGAGCAAAGGCUUUGCACGGAGCUCAAACAUCUGAUGAAGAAAGAUUUCUGAGA; result = 0.271 ratio
Oligonucleotide = AAAGAGUGGAUAGAGUGUGCACACGGGAUCGGUGGGACCCGGGCGAAGAAAGAGUGCAAGAUAGAGUUCGAUGACUUCGUAGAGUGUUUGCUUCGGUACAAAACGAUGAGGCGAAUGCAU; result = 0.368 ratio
Oligonucleotide = AGGAGGAGGUUAAAGGGUGAGAGUGGGGUGGAAGACUGUGUCAUGGCUCUGGAGACACUGUUCAGUGUCCUGCUUUCUCUGUGCAGACUGAUGGCCCCCUACACACCUUUUCUCACUGAG; result = 0.0533 ratio
Oligonucleotide = CACACACUCUUCUGUGGGACCCUCAUCUUGCAGGCCCGGGCCUAUGUGGGACCGCACGUCCUGGCAGUGGUGACCCGGACAGGGUUCUGCACGGCAAAAGGGGGCCUGGUGAGCUCCAUC; result = 0.0488 ratio
Oligonucleotide = CGCUGGCCCAAGCUGAUGUAAAUGUUUGGCCUCCAUCAAGGUAUUAUGUGUGCCUUCUCUUAGUCCCUGUUUUCGGGAUGUUAUGAAUCUCAGUACUGUGGUUUGAAAGCACCAGCUUUG; result = 0.113 ratio
Oligonucleotide = AAAGAACUACUGAGGCAAGGCAGCAAAUUUAGAAGAAACAUUUCAACAAUAUUGAUAGAGUUAGGAUUCCAAAUUAAAAAAAAAACUAAGACAUUAUACAUCAACAAAGCCAAUGUGUGG; result = 27.3 ratio

Set 5 — technique: RNA Bind-n-Seq; molecule type: RNA; medium: in vitro; concentration: 365 nM; relative to: no-protein control; reading: higher = stronger binding; endpoint: RBNS enrichment (R)
Target: RNA binding protein fox-1 homolog 2, RRM domain, GST-SBP tag (RBFOX2, Homo sapiens, UniProt O43251-10, residues 100-194)
Setting: natural RNA segment, single round, ends assumed
Shared flanks, not repeated: GGGAGUUCUACAGUCCGACGAUC … UGGAAUUCUCGGGUGCCAA
Residues (chain): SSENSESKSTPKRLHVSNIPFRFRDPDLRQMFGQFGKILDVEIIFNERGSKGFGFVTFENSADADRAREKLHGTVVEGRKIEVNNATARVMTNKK
Oligonucleotide = UAUUCUAUUAGACUUCAUGCUGUAAAGAGAACAUGUUAUUUUGCCUCUAAACUUUGAUUUAUUGAAGUUUUAUUUGGCAAGAAAAAAGAAAUUGAAUCUUGAUCAAUAUU; result = 0.528
Oligonucleotide = UUGUGGGUGGCGGGCGUUGGCAGAGAGCAGCAGGCACCUUAAUGCUGACUUGUCAGUAUCUCCAUCUCUAGUCACCUUUCUGGUGUCAGAAGAGAUGUGAUCUUCUACUG; result = 0.305
Oligonucleotide = UUAGAACCUGUCUGCCACUAUCUGAUGACUUACAUUGUGGUUUUCUACAAGCCACCUCAGUUAACUUUGGUUCCCCGUGGACUCCCAGGCUGGAGGAGGAAAGCGUGAGG; result = 0.955
Oligonucleotide = CAACGACGUGGACCUGCGUGGGGACCAGCCCUCCCUGGGCAGCUUCACCUACUCCACCUCUGCGCCUGGCCCAGCCCUUUCCCCGUCGGUGCCCCUGCACUACCUGCCCC; result = 0.72
Oligonucleotide = CUCUGAACUUCAUUCUCCCCAUAAGCCAAACAAGAACAGACCUCCCCCGCCACCUCCCAGGCACCGUAGUUGUGAGAAUCAGAUGUGAUCAUGUGUGCAGAUGUCCUGUG; result = 1.84
Oligonucleotide = UGUAUGGGGUAUGAGGAGAUAAUGAAAGAAAAGUGGUCCUCAUGCUGGAUAUGUGACUGUUUUGUUCUCUGUAAAGUGUAUUCUUGGGAAGUGAUUGGUUUAUAUCAGAU; result = 7.12
Oligonucleotide = UAAUUUUUAUUUAAACCCUUGCACUUCUCAGUGCCUGGCAGCUGCAAGGGUCCCAGCUGCCCCGAGGCAGUCUGUGGCCCUGGUUGAAGGAAGCACAAACUAGAUGUCUG; result = 0.288
Oligonucleotide = UUAACCCUAAUUUCUCUCUGACCCUAAAGGAGCUGCUGGCCCUAGAAGGUUGGGAUCAAUCUUGUCAAGUCUAUGUUACACUUACUUUUACAAAAAAAAGUAUAUAUACA; result = 0.255
Oligonucleotide = CAGGAAAGCUGGGGAAGGUUAUGAGUGGGAAUACUGUUUCGAAAGUAUCGUGCAUUAAAUGGGCAGUGUUAAUGUAGAACCAGGGUUCUACCACAUGCAAGUCUGUGUCC; result = 0.655
Oligonucleotide = UCUACUACCAGAAGGGCUUCAAAGAUAUAGGGUGUGGCUCCUACCAGCAAACAGCUGAAAGAGGAGGACCCCUGCCUUCCUCUGAGGACAGGCUCUAGAGAGAGGGAGAA; result = 0.352
Oligonucleotide = ACUUUUACUUAUUGUGGGAUAACCUGGCACUAGUAGGCAGGUAAAGUCACAAAUUUGGUGUCUUUUCACCUUUUGACUGUUGACUUAAUAGCUCCUCUCACUCUGCCUGG; result = 0.267
Oligonucleotide = UCUCAUUAGAGGAAGCUUUCCAAAGUUCUCAGUUAUCAAGACCUCAUCCAGCUCGUCCAAAGGCUUCAGGGAUGGAAACAAACCAGCUCGUCUCAGAGGCCAGCAAGCUG; result = 0.34

Set 6 — cell line: yeast with cyclin D2-Cln2 chimera; read-out: cell growth; mode: binder; technique: competitive growth deep sequencing; molecule type: peptide; concentration: concentration not given; setting: peptide tiling library; reading: direction not given; endpoint: growth enrichment score
Molecule = KPITLDTTDFQESFVT; result = 0.255
Molecule = VLLKRLQDVVSERANH; result = 3.48
Molecule = PLRKAKRARLCSSSSS; result = 0.244
Molecule = AIRKMREDRWAVIAKM; result = 1.05
Molecule = IVLICAKRSLCAAFSV; result = -1.3
Molecule = DSDSDSEGGAAGGEAD; result = 0.798
Molecule = IPDRSTKPVVFSPT; result = 1.03
Molecule = GQLVIPLDELTLDTSF; result = 0.567
Molecule = LRRQLSFSED; result = -0.0585
Molecule = EPRNLLSLFEDTLDPT; result = -0.77
Molecule = NARRSLNFGGSTGT; result = -0.364
Molecule = DTERAHSTLDEDLERW; result = 0.802
Molecule = KRCATPVIIDEILPSK; result = 0.59
Molecule = ALTMEALEDPSPELME; result = 0.315
Molecule = PARRRLRLSVDEVSSP; result = -0.343
Molecule = VKRLNFRSEEME; result = -1.18
Molecule = PAKRRLELGE; result = 1.21
Molecule = RRVLCFDS; result = -0.0115
Molecule = ESSQLTVQAEFDMSAI; result = 0.0688
